{"data": "Results collected from several papers", "note": "Numbered parts are unrelated; each lists some results of a single study. Positions count from the first letter of the parent shown."}
{"data": "Block 1", "target": "RNA binding protein fox-1 homolog 2, RRM domain, GST-SBP tag (RBFOX2, Homo sapiens, UniProt O43251-10, residues 100-194)", "method": "RNA Bind-n-Seq", "molecule type": "RNA", "sample": "in vitro", "concentration": "365 nM", "setting": "natural RNA segment, single round, ends assumed", "reference": "no-protein control", "direction": "higher = stronger binding", "all sequences stand within": "GGGAGUUCUACAGUCCGACGAUC … UGGAAUUCUCGGGUGCCAA", "Construct (chain)": "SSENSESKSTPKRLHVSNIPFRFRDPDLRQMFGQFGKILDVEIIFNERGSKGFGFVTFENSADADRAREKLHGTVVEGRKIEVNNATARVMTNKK"}
{"Oligonucleotide": "GAGGUUGGGGGGCAGAGUCCCAGAGCAGCCCUUUACCCCAGGUCCAGGCCCUGGAAUCCUGAGACUCGCGUUUCCUUGGCCAGUGGUAACACAGGACGUGUGUGCGCAUG", "RBNS enrichment (R)": 0.982}
{"Oligonucleotide": "AGUCCUCUAACACCCCUUGAGACCAAUUCUGCCACUGUAUUUAGAAGCUUUGAGUUAAAGGAUUUGACGACCACAAAAAACCAAAACCAAAACCAAAAACAAAAACCCAG", "RBNS enrichment (R)": 0.361}
{"Oligonucleotide": "AAAUUUAGACAGGGAUCUCUUACCUUUGGAAAAUAGGGGUUAGGCAUGAAGGUGGUUGUGAUUAAGAAGAUGGUUUUGUUAUUAAAUAGCAUUAAACUGGAAUUGACAAG", "RBNS enrichment (R)": 1.13}
{"Oligonucleotide": "GAAAGAAAAAUACCAUGUCUCUAAGCCAACUUUAAUUGCUUAAAAGACAUUUUUAUUUAGUUGAAAAAUCUAGUUUUUUUUGUAAACUGUAUCAAAUCUGUAUAUGUUGU", "RBNS enrichment (R)": 1.25}
{"Oligonucleotide": "GUUCCCGCAGCCGCCACCACUAGCCUCCUUAGGGCUGGCCUUGUCCAAAGAAUGGGGGUGGGAGCGCCAAGGGGCAGAGACUCUCCUUGACCCUCUCCCUAAGGUUGGAU", "RBNS enrichment (R)": 0.287}
{"Oligonucleotide": "CAGAAGAAUGGGAGAUGAGUAGGGACCCCUCAAGCACAGCUGUCACUCAGAAAUUUUAAAUUUGAAAAAGAAAUCGAUUUUCAUCUGUAUGCCGUCAAGGAAGGAAUUCA", "RBNS enrichment (R)": 0.439}
{"Oligonucleotide": "CACAGGUAAGAGAAGCUGCCAGUGACGUUCUGUGGGGCCUGGCUUUGGGCAGCUGCUCAUCAUUGAGGAAGUGGCAGGACUUGGAGGAAGUUAUGUGUGAAUGUUGUCAA", "RBNS enrichment (R)": 5.86}
{"data": "Block 2", "target": "Cyclic AMP-dependent transcription factor ATF-1, full length (ATF1, Homo sapiens, UniProt P18846, residues 1-271)", "method": "protein-binding microarray", "molecule type": "hairpin DNA", "sample": "in vitro", "concentration": "not given", "setting": "whole hairpin DNA, median over replicate spots", "reference": "not given", "direction": "higher = stronger binding", "all sequences stand within": "GAGGCCG … CGGCCTCACACTC", "Residues (chain)": "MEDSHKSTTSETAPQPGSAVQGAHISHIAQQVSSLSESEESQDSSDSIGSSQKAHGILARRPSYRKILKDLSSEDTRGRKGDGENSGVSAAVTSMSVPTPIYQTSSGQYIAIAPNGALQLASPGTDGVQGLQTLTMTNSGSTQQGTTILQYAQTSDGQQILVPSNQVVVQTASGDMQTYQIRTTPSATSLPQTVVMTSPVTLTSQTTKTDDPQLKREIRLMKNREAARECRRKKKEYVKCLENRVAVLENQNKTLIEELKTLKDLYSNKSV"}
{"Oligonucleotide": "ACGACGTCCGGCCTCCTGGCCGGACGTCGT (5mC at 9 15 16 28 35)", "median fluorescence [a.u.]": 3550}
{"Oligonucleotide": "ACGAAGTCGTGCCTCCTGGCACGACTTCGT (5mC at 9 15 29 35)", "median fluorescence [a.u.]": 2940}
{"Oligonucleotide": "CCTGACGTCAGCCTCCTGGCTGACGTCAGG (5mC at 8)", "median fluorescence [a.u.]": 8870}
{"Oligonucleotide": "ACGGCGTCGTGCCTCCTGGCACGACGCCGT (5mC at 9 15 29 34 35)", "median fluorescence [a.u.]": 3840}
{"Oligonucleotide": "GCTGTCGTCAGCCTCCTGGCTGACGACAGC", "median fluorescence [a.u.]": 3980}
{"Oligonucleotide": "CCTGACGTCAGCCTCCTGGCTGACGTCAGG", "median fluorescence [a.u.]": 9700}
{"Oligonucleotide": "GCTCGCGTCAGCCTCCTGGCTGACGCGAGC", "median fluorescence [a.u.]": 4170}
{"data": "Block 3", "target": "CCNA1, cyclin fold, Cln2 fusion (human)", "method": "yeast growth competition, sequencing", "sample": "yeast", "setting": "weak parent motif", "reference": "not given", "direction": "higher = stronger binding", "starting sequence": "SCAPER docking peptide (human); SNARRSLNFGGST"}
{"Variant": "SNARRHLNFGGST [S6H]", "normalised enrichment score": 0.519}
{"Variant": "SNARRSLFFGGST [N8F]", "normalised enrichment score": 0.629}
{"Variant": "SNARRSLNFGGNT [S12N]", "normalised enrichment score": 1.03}
{"Variant": "SNARASANFGGST [R5A L7A]", "normalised enrichment score": 0.0523}
{"Variant": "SNARRSLNFGGFT [S12F]", "normalised enrichment score": 0.659}
{"Variant": "VNARRSLNFGGST [S1V]", "normalised enrichment score": 0.85}
{"data": "Single results of other studies"}
{"Molecule": "PhoQ, residues 284 288 289 292 302 303 SACGEM", "target": "PhoP, residues 12 14 15 18 19 LYFRQ (Escherichia coli, UniProt P23836)", "assay": "Sort-seq, refers to: YFP reporter", "test system": "E. coli", "conditions": "PhoQ-PhoP variant library, added: 10 µM Mg2+", "how to read": "reference: high Mg2+ state, higher = stronger signaling", "endpoint": "fold induction", "result": 17.3}
{"note": "Some of these lines once more (block 3):"}
{"Variant": "SNARASANFGGST [R5A L7A]", "normalised enrichment score": 0.0523}
{"Variant": "SNARRSLNFGGFT [S12F]", "normalised enrichment score": 0.659}
